Assay results collected from several papers.
A part holds a random share of what one study measured. Changes are numbered by the printed parent chain.

Block 1
Target: CCNB3, cyclin fold, Cln2 fusion (human)
Method: yeast growth competition, sequencing
Sample: yeast
Notes: weak parent motif
Relative to: not given
Reading: higher = stronger binding
Parent: PKN2 docking peptide (human); DSTVTKLDFDLEP
Change	normalised enrichment score
K6A	0.181
E12A	-0.227
V4A	-0.251
T3A	0.0169
D1A	0.135
L7A	0.0766

Block 2
Target: Ras GTPase-activating protein-binding protein 1, full length (G3BP1, Homo sapiens, UniProt Q13283)
Sequence of UniProt Q13283 (whole entry, looked up): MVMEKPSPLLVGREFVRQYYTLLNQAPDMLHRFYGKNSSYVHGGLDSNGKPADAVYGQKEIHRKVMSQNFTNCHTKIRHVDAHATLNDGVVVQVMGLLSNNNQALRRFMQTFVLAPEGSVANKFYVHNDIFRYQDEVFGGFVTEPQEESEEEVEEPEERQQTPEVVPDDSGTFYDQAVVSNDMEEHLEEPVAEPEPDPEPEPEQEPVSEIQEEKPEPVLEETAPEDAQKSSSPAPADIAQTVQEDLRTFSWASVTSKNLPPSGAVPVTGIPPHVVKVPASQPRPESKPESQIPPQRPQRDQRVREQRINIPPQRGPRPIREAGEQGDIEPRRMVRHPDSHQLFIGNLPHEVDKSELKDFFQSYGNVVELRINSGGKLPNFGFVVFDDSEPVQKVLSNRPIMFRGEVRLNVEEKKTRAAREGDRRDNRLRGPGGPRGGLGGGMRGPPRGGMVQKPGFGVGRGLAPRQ
Method: RNA Bind-n-Seq
Molecule type: RNA
Sample: in vitro
Tested at: 200 nM
Notes: whole 134-nt RNA, ends assumed
Together with: 150 mM LiCl
Relative to: input library
Reading: higher = stronger binding
Library: 7-deaza-guanosine replaces G
Shared flanks, not repeated: GGGAGUUCUACAGUCCGACGAUC … UGGAAUUCUCGGGUGUCAAGG
Oligonucleotide	log2 enrichment
ACCAUGCAGGUGGGCAUCUUUGGGAAGUGGGGCAAGGGGGGGAUAGGGAGGGGGGUAACACUUGGGGAACAGGUGGUCCCAGGUCGUUUC	0.211
AGUCCUGUGCUACACAUCGUAUGUACCGAAUCGGAAAGGUUUUUUUGGUUUUUUUGGAAAGUAUUAUGUUACGCCGUUCGGAUCUGCACU	-2.44
GUCCUGUGCUACACAUCGUAUGUACCGAAUCGGGUUUUUUUGGGAAAGGGAAAAAGGGAAAGUAUUAUGUUACGCCGUUCGGAUCUGCAC	-0.751
CUCAAGUCCUGUGCUACACAUCGUAUGUACCGAAUCGGUUUUUGGAGGAAAGGAAAGUAUUAUGUUACGCCGUUCGGAUCUGCACUUCCA	0.0578
GUCCUGUGCUACACAUCGUAUGUACCGAAUCGGGGAAAGGGGUUUGGGGAAAAAGGGGAAAGUAUUAUGUUACGCCGUUCGGAUCUGCAC	-0.952
CUCAAGUCCUGUGCUACACAUCGUAUGUACCGAAUCGGGUUGGUUGGGGUUGGGAAAGUAUUAUGUUACGCCGUUCGGAUCUGCACUUCC	0.178
GAGCAAAGAGCCAUUCAGCUUCAGUCUUUACAUACCAUGAAUAAAACAUUAAAACAUCAUAUGGAGAAGUUUACAUGGUGAUUGUUCACC	0.0572
UGUGCUACACAUCGUAUGUACCGAAUCGGGGCCCCCCCGGGGCCCCCCCGGGGCCCCCCCGGAAAGUAUUAUGUUACGCCGUUCGGAUCU	-0.567
GGAGGAAGUAAAAACAAAUGGAAAUGCUUCGGAUAGUGGCAGGGGUGGGGGUUGCUAAGGAAAGGGUGGGAUGGGAGUGGGUAAAGAGUU	-0.0753
GCAGGAAGUAAAAACAAAUGGAAAUGCUUCGGAUAGUGGCAGGGGUGGGGGUUGCUAAGGAAAGGGUGGGAUGGGAGUGCGUAAAGAGUU	0.214
GCCAUGCAGGUGGGCAUCUUUGGGAAGUGGGGCAAGGGGGGGAUAGGGAGGGGGGUAACACUUUGGGAACAGGUGGUCCCAGGUCGUUUC	0.106

Block 3
Target: Sal-like protein 4, full length isoform B (SALL4, Homo sapiens, UniProt Q9UJQ4-2, residues 1-616)
Method: universal PBM
Molecule type: double-stranded DNA, one strand shown
Sample: in vitro
Tested at: not given
Notes: 8-mer, flanks averaged, mean of replicates
Reading: higher = stronger binding
Oligonucleotide	E-score
CACACTAC	0.00806
AAGTTATT	0.356
AAACAAAG	0.104
GTCTGCAC	-0.108
TACTTCTA	0.156
GGTGCGCA	-0.0928
CACCGGAC	-0.376
GTCGATAA	0.0632
CACGAGTA	0.0517
ACGCTTCC	-0.129
GATGTCAA	0.0699
CTTGGTGA	-0.16
CAGGGCGC	-0.329
AACATGGG	-0.0295
ATTCCCCC	-0.0813
GCAAGTAA	0.106
ACTTTGCG	-0.14
ATCTGTAG	-0.0101
CCCTGACG	-0.217
CATTTAAC	0.234
CCTGAGCG	-0.239
CAAAGCTG	0.0558
ATTATCGG	0.117
CACTCGAG	-0.119
CTGGTATA	-0.0371

Block 4
Target: Prothrombin, mature alpha-thrombin (F2, Homo sapiens, UniProt P00734)
Method: aptamer microarray, sandwich
Molecule type: DNA with 2'F-ANA
Sample: in vitro
Tested at: 200 nM
Notes: whole 15-mer aptamer, many near background
Together with: Cy3 exosite-II aptamer, 400 nM
Reading: higher = stronger binding
Oligonucleotide: GGTTGGTGTGGTTGG
Modification	mean fluorescence intensity [a.u.]
2'F-ANA at 1 4 5 8 9 12 14 15	47.8
2'F-ANA at 4 10 12 13 15	85.9
2'F-ANA at 2 4 8 10 11 12 14 15	61.3
2'F-ANA at 1 2 4 7 8 9 11 12 15	226
2'F-ANA at 2 3 5 6 7 10 14	101
2'F-ANA at 1 3 4 5 6 7 8 9 10 11 12 14	52.5
2'F-ANA at 4 5 8 9 11 12 13 15	124
2'F-ANA at 3 4 7 8 10 12 14	207
2'F-ANA at 1 6 9 11 13 15	208
2'F-ANA at 2 3 5 10 11 13 14 15	53.8
2'F-ANA at 1 2 9 11 12 14 15	59.6
2'F-ANA at 2 5 6 8 10 14	45.3
2'F-ANA at 2 5 7 8 10 12 13 14 15	49.9
2'F-ANA at 1 2 3 4 7 8 14	90.5
2'F-ANA at 1 2 4 5 6 7 8 10 11 12 13	109
2'F-ANA at 1 2 4 5 6 9 10 11	63

Block 5
Target: CREB3L3, bZIP domain (human)
Method: DHFR protein complementation
Sample: yeast
Notes: single substitutions, most at no-binding floor
Relative to: wild-type JUN-FOS pair
Reading: higher = stronger binding
Parent: JUN, bZIP domain (human); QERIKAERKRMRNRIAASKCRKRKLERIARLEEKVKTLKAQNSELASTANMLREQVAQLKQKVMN; partner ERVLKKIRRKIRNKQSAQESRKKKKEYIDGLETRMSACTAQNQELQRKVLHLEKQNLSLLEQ
Change	binding fitness
L38G	-1.49 natural log
K36H	-1.48 natural log
E33H	-1.5 natural log
A46I	-1.51 natural log
L31Y	-1.53 natural log
I28H	-1.04 natural log
A49Y	-1.5 natural log
L31V	-1.5 natural log
I28P	-1.41 natural log
A57E	-1.55 natural log
E32A	-1.2 natural log
K34G	-1.34 natural log
Q55K	-1.49 natural log

Single results of other studies
Substance	target	assay	test system	setting	scale	endpoint	result
PhoQ, residues 284 288 289 292 302 303 GNNTDL	PhoP, residues 12 14 15 18 19 TPLRH (Escherichia coli, UniProt P23836)	Sort-seq, refers to: YFP reporter	E. coli	PhoQ-PhoP variant library, together with: 10 µM Mg2+	relative to: high Mg2+ state, higher = stronger signaling	fold induction	7.53

Repeated from above (block 3):
Oligonucleotide	E-score
CAGGGCGC	-0.329
CACCGGAC	-0.376
GTCTGCAC	-0.108
GGTGCGCA	-0.0928
ATCTGTAG	-0.0101
ATTCCCCC	-0.0813
CTTGGTGA	-0.16
CACGAGTA	0.0517
CCCTGACG	-0.217
ACTTTGCG	-0.14
CTGGTATA	-0.0371
CACACTAC	0.00806
